Published values gathered from unrelated publications.
Protocols differ between the studies behind these lines. ± marks the error that the study gave.

COc1cc2c(cc1OC)CN(CCc1ccc(NC(=O)c3cc(OC)c(OC)cc3NC(=O)c3cnc4ccccc4c3)cc1)CC2
Cmax (human, plasma; intravenous infusion, 8 mg/kg): 1590 ng/mL

CN1CCN(c2ccc3nc(-c4c(N)c5c(F)cccc5[nH]c4=O)[nH]c3c2)CC1
Cmax (patients, plasma; oral, 300 mg, day 1, minimum concurrent dosing, added: gemcitabine and capecitabine): 99.4 ng/mL

CC1=C2C[C@H]3[C@@H](CC[C@@H]4C[C@H](NS(C)(=O)=O)CC[C@@]43C)[C@@H]2CC[C@@]2(C1)O[C@@H]1C[C@H](C)CN[C@H]1[C@H]2C
Cmax (patients, plasma; oral, 180 mg daily, day 22, cycle 1): 644 ng/mL

CO[C@H]1C[C@@H]2CC[C@@H](C)[C@@](O)(O2)C(=O)C(=O)N2CCCC[C@H]2C(=O)O[C@H]([C@H](C)C[C@@H]2CC[C@@H](OP(C)(C)=O)[C@H](OC)C2)CC(=O)[C@H](C)/C=C(\C)[C@@H](O)[C@@H](OC)C(=O)[C@H](C)C[C@H](C)/C=C/C=C/C=C/1C
Cmax (HPLC-MS/MS; Japanese patients, whole blood; oral, 20 mg, day 1, cycle 1, geometric mean): 113 ng/mL

COc1cc(OC)c(/C=C/S(=O)(=O)Cc2ccc(OC)c(NCC(=O)O)c2)c(OC)c1
Cmax (cancer patients, phase I, plasma; oral, 70 mg twice daily, day 1 cycle 1): 400 ± 290 ng/mL

CC(C)(Sc1ccncc1-c1ccc(C#N)c2ccccc12)C(=O)O
Cmax (male, plasma; oral, 15 mg, severe renal impairment, fasted): 38.2 ng/mL

O=c1c(-c2ccc(O)cc2)coc2cc(O)ccc12
Cmax (healthy volunteers, urine; oral, dose not given, pharmaceutical preparations): 228 ± 5.34 ng/mL

CN(C)C(=O)c1cc2cnc(Nc3ccc(N4CCNCC4)cn3)nc2n1C1CCCC1
Cmax (Japanese cancer patients, plasma; oral, 600 mg, steady state, with proton pump inhibitor, geometric mean): 2700 ng/mL

CC(=O)Nc1ccc(O[C@@H]2O[C@H](C(=O)O)[C@@H](O)[C@H](O)[C@H]2O)cc1
Cmax (healthy volunteers, both sexes, plasma; oral, 650 mg acetaminophen, day 6, added: favipiravir 800 mg, extended): 16900 ng/mL

Cc1nc(-c2ccc(OCC(C)C)c(C#N)c2)sc1C(=O)O
Cmax (healthy Chinese adult volunteers, plasma; oral, 80 mg single dose, fed): 3430 ± 1150 ng/mL

Cc1c(Cl)c(C)[n+]([O-])c(Cl)c1-c1noc(-c2cc(O)c(O)c([N+](=O)[O-])c2)n1
Cmax (Parkinson's disease patients, plasma; oral, 50 mg, day 1, after first dose): 465 ± 458 ng/mL

CCC[C@H](N[C@@H](C)C(=O)N1[C@H](C(=O)O)C[C@@H]2CCCC[C@@H]21)C(=O)OCC
Cmax (healthy Chinese volunteers, plasma; oral, 4 mg, fasting, added: indapamide 1.25 mg): 48 ± 16.2 ng/mL

CC(C)=CCC[C@](C)(O[C@@H]1O[C@H](CO)[C@@H](O)[C@H](O)[C@H]1O)[C@H]1CC[C@]2(C)[C@@H]1[C@H](O)C[C@@H]1[C@@]3(C)CC[C@H](O[C@@H]4O[C@H](CO)[C@@H](O)[C@H](O)[C@H]4O[C@@H]4O[C@H](CO)[C@@H](O)[C@H](O)[C@H]4O)C(C)(C)[C@@H]3CC[C@]12C
Cmax (LC-MS/MS; healthy male volunteers, serum; oral, 3 g fermented red ginseng): 17.5 ± 6.58 ng/mL

O=C(C1CCCCC1)N1CC(=O)N2CCc3ccccc3[C@H]2C1
Cmax (healthy men, plasma; oral, 40 mg/kg racemic praziquantel, geometric mean, without ritonavir): 1170 ng/mL

O=C1Nc2c(C(=O)O)ccnc2N(C2CC2)c2ncccc21
Cmax (olive baboon (Papio anubis), non-pregnant, serum; oral, 10 mg/kg of nevirapine, solution, single dose): 214 ± 50.6 ng/mL

CCC(CC)O[C@@H]1C=C(C(=O)O)C[C@H](N)[C@H]1NC(C)=O
Cmax (healthy Indian subjects, fed, plasma; oral, 75 mg oseltamivir phosphate, test capsule formulation): 241 ± 64 ng/mL

CC(C)(Sc1ccncc1-c1ccc(C#N)c2ccccc12)C(=O)O
Cmax (healthy Japanese male subjects, plasma; oral, 15 mg single dose, day 1, fasted, geometric mean): 32.2 ng/mL

A few entries again:
O=C1Nc2c(C(=O)O)ccnc2N(C2CC2)c2ncccc21
Cmax (olive baboon (Papio anubis), non-pregnant, serum; oral, 10 mg/kg of nevirapine, solution, single dose): 214 ± 50.6 ng/mL
